Results of several laboratories.
Compare with care: the assays were run in different laboratories.

O=C1C=CC(=O)C(c2cc(Cl)ccc2Cl)=C1 — tolerability (mouse; po, 30 mg/kg): not toxic
CCc1cnc(NC(=O)c2cc(S(=O)(=O)N3CCOCC3)ccc2N(C)C2CCCC2)s1 — tolerability (mouse, H1975-OR xenograft; intraperitoneal, 10 mg/kg): not toxic
O=C(N[C@@H](Cc1coc2ccccc12)B(O)O)[C@@H]1C[C@H]2CC[C@@H]1O2 — tolerability (mouse; oral, 1 and 10 mg/kg daily or intermittent): not toxic
N=C(N)Nc1ccc(-c2nc3ccc(-c4ccc5nc(-c6ccc(NC(=N)N)cc6)[nH]c5c4)cc3[nH]2)cc1 — tolerability (FVB mouse; intraperitoneal, 40 mg/kg daily, 7 days): not toxic
C=CC(=O)N1CCCC(n2c(=O)c3ncccc3n(Cc3ccc(Oc4ccccc4)cc3)c2=O)C1 (stereo not drawn) — tolerability (NOD-Scid mouse, Rec1 xenograft; intraperitoneal, 200 mg/kg daily, 5 days/week): not toxic
CONC(=O)[C@H]1[C@@H](O)[C@@]2(O)c3c(cc(OC)nc3OC)O[C@@]2(c2ccc(C#N)cc2)[C@@H]1c1ccccc1 — tolerability (mouse; oral, 0.5 mg/kg three times weekly, two weeks): not toxic
COc1ccc2c(c1)c1c(C)c3cnccc3c(C)c1n2CCCN1CCN(C)CC1 — tolerability (mouse, LPS-induced lung inflammation): not toxic
O=C(NCCCCc1ccccc1)n1c(=O)oc2cc(-c3ccc(F)cc3)ccc21 — tolerability (mouse; intraperitoneal, 10 mg/kg): not toxic
CC1=C(/C=C/C(=O)N2CCN(C(N)=O)CC2)C(C)(C)CCC1 — tolerability (T17M RHO transgenic mouse; oral, daily dosing): not toxic

A few entries again:
CCc1cnc(NC(=O)c2cc(S(=O)(=O)N3CCOCC3)ccc2N(C)C2CCCC2)s1 — tolerability (mouse, H1975-OR xenograft; intraperitoneal, 10 mg/kg): not toxic
